Measured values of several laboratories.
Each line is one published result; not all experiments were run side by side. Numbers after ± are the reported error.
NR1I2: Nuclear receptor subfamily 1 group I member 2 (NR1I2, Homo sapiens, UniProt O75469)
Chain of UniProt O75469 (whole entry, looked up): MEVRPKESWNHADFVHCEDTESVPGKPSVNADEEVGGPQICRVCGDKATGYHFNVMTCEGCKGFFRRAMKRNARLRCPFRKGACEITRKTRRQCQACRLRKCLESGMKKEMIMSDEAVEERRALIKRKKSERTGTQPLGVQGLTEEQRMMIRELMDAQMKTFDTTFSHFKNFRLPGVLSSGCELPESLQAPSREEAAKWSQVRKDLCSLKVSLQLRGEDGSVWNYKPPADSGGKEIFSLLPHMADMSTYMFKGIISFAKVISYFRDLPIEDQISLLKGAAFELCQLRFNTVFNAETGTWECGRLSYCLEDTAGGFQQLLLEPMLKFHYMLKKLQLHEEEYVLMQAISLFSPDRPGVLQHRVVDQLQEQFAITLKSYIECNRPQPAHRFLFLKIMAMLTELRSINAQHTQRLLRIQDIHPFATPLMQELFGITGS
Chain of UniProt Q9NPD5 (whole entry, looked up): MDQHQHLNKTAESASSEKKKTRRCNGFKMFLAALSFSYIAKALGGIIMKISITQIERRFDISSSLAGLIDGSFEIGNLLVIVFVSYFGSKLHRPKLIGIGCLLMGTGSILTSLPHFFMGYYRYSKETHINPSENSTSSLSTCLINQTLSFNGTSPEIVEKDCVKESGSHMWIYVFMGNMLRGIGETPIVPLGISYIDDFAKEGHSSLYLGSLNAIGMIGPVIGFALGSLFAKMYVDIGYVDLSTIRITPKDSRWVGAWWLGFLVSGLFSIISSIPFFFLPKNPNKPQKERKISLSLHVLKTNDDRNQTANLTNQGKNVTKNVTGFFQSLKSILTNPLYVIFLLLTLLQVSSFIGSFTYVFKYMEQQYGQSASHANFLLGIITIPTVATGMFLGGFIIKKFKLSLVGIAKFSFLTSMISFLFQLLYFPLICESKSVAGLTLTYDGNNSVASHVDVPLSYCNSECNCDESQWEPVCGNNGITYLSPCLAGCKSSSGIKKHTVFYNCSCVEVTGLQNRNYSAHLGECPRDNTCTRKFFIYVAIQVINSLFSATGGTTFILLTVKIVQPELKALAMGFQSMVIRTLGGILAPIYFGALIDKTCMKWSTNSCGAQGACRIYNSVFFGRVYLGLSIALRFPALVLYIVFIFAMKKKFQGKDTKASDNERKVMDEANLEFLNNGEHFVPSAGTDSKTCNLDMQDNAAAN
Chain of UniProt Q9UNQ0 (whole entry, looked up): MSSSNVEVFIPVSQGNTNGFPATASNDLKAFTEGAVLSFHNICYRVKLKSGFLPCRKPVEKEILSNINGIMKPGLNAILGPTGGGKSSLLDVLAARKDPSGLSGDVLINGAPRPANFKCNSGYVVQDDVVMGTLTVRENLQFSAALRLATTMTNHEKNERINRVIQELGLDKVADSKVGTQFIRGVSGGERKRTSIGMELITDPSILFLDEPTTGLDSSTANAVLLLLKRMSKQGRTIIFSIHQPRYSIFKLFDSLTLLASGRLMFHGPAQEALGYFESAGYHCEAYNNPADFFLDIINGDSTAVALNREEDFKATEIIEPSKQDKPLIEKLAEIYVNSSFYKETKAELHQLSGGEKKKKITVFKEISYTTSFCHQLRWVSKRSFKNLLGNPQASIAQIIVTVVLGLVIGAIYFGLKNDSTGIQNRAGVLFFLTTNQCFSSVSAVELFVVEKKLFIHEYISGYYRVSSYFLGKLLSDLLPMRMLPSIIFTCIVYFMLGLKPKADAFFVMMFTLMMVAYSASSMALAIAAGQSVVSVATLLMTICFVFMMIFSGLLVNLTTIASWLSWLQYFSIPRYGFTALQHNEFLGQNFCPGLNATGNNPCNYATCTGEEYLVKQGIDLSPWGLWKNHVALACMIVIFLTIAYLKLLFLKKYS
Chain of UniProt P11712 (whole entry, looked up): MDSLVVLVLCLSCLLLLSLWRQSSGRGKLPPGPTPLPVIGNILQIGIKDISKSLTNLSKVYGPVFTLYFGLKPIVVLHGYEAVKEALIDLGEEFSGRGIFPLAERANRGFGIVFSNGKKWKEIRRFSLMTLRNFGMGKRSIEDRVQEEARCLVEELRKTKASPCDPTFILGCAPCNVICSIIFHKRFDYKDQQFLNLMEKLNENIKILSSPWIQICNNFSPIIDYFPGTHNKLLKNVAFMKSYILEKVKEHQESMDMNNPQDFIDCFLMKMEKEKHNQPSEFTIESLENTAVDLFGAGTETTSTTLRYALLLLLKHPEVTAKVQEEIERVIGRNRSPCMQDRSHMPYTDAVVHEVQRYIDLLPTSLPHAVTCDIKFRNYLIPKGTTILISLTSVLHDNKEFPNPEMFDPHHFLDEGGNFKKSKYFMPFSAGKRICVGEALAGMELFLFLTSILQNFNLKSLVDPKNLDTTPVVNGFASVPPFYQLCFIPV
Chain of UniProt P08684 (whole entry, looked up): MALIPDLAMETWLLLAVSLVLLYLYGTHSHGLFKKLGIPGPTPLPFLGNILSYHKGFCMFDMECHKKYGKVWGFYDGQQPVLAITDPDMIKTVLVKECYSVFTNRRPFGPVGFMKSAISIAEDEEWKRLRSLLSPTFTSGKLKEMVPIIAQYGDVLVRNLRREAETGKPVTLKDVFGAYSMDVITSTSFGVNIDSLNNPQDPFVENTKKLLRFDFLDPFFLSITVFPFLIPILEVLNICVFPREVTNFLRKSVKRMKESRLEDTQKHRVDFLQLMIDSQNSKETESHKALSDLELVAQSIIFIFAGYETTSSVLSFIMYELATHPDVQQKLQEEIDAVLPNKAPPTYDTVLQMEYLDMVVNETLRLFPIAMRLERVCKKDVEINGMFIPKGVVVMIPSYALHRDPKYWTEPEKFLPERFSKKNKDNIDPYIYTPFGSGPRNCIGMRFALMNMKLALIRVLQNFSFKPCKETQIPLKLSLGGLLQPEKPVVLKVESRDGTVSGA
Chain of UniProt P11509 (whole entry, looked up): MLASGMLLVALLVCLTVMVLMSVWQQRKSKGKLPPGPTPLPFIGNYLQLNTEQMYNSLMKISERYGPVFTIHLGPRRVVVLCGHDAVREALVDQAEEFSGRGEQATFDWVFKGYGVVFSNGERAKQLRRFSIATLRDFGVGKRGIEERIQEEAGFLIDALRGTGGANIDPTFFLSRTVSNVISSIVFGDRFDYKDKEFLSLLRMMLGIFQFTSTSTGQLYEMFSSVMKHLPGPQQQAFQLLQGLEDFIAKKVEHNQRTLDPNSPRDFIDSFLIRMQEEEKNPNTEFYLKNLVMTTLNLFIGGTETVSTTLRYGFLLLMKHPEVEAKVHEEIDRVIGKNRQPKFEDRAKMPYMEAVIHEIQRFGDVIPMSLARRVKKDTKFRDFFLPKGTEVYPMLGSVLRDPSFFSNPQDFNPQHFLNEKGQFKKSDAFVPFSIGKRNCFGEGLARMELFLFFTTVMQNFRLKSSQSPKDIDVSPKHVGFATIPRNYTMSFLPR

C=C1C[C@@H]2[C@H](CC[C@]3(C)C(=O)CC[C@@H]23)[C@@]2(C)C=CC(=O)C=C12: “median plasma concentration” 7.7 ng/mL (LC-MS/MS; postmenopausal breast cancer women, plasma; oral, 25 mg/day, 2 h, AKR7A2 A142T homozygous wild-type).
Clc1ccc(-c2cc(Cl)c(Cl)cc2Cl)cc1Cl gave a fold induction of 2.4 ± 0.2 fold (NR1I2; reporter gene, agonist, luciferase; COS-7; 24 h; reference: DMSO).
For Cc1ncc2n1-c1ccc(Cl)cc1C(c1ccccc1F)=NC2, the terminal half-life was 8.77 h (human CYP3A5 expressers, serum; geometric mean, together with: ketoconazole 400 mg).
CN1COCN(Cc2cnc(Cl)s2)/C1=N\[N+](=O)[O-] has an EC10 of 0.1 mg/kg dry soil (Folsomia candida; reproduction, OECD 232; LUFA 2.2 soil; 28 days).
CCCCCCCCCCc1cn(Cc2cn([C@H]3C[C@H](OC(=O)OC[C@H]4O[C@@H](n5cc(C)c(=O)[nH]c5=O)C[C@@H]4N=[N+]=[N-])[C@@H](COC(=O)OC[C@H]4O[C@@H](n5cc(C)c(=O)[nH]c5=O)C[C@@H]4N=[N+]=[N-])O3)c(=O)[nH]c2=O)nn1 has a CC50 of greater than 300 µM (MT4; cell growth or viability).
O=c1cc(-c2ccccc2)oc2ccc3ccccc3c12 gave a fold induction of 2.1 ± 0.4 fold (PXR (polar bear); reporter gene, agonist, luciferase; COS-7; 24 h; reference: DMSO).
O=C1OC(c2ccc(O)c(S(=O)(=O)O)c2)(c2ccc(O)c(S(=O)(=O)O)c2)c2c(Br)c(Br)c(Br)c(Br)c21 gave a [3H]CCK-8 accumulation of 0.13 ± 0.01 fold (Solute carrier organic anion transporter family member 1B3 (SLCO1B3, Homo sapiens, UniProt Q9NPD5); human sandwich-cultured hepatocytes; 100 µM, 1 h pre-incubation then washout; reference: vehicle).
CN/C(=N\[N+](=O)[O-])NCc1cnc(Cl)s1 gave an EC20 of 0.04 mg/kg dry soil (Folsomia candida; reproduction, OECD 232; LUFA 2.2 soil; 28 days).
The dose-normalized Cmax of N[C@]1(c2ccccc2Cl)CC[C@H](O)CC1=O is reported as 133 ± 4.2 ng/mL per mg/kg (male CD-1 mice, plasma; intraperitoneal, 5 mg/kg).
CN1CC[C@]23c4c5ccc(O)c4O[C@H]2[C@@H](O[C@@H]2O[C@H](C(=O)O)[C@@H](O)[C@H](O)[C@H]2O)C=C[C@H]3[C@H]1C5 has a Papp of 2.15 ± 0.06 ×10⁻⁶ cm/s (MDCK II; 10.0 µg/mL, 100 min, DMEM buffer).
With N[C@@]1(c2ccccc2Cl)C[C@H](O)CCC1=O the dose-normalized Cmax was 367 ± 92.1 ng/mL per mg/kg (male CD-1 mice, plasma; intraperitoneal, 5 mg/kg).
CCCC(CCC)C(=O)O: “lowest effective concentration” 9.6 mM (Artemia franciscana; body length; larvae; 24 and 48 h, 0.17% DMSO).
C=C(C)[C@@H]1CCC(C)=C[C@H]1c1c(O)cc(CCCCC)cc1O gave an inhibition of 75% (Cytochrome P450 2A6 (CYP2A6, Homo sapiens, UniProt P11509); nicotine demethylation to nornicotine, inhibitor; microsomes of overexpressing HEK293 cells; 10 µM, 30 min, pH 7.4, together with: nicotine 50 µM).
Clc1ccc(Cl)c(-c2cc(Cl)ccc2Cl)c1 gave a fold induction of 1 ± 0.2 fold (PXR (polar bear); reporter gene, agonist, luciferase; COS-7; 24 h; reference: DMSO).
For Cc1ncc2n1-c1ccc(Cl)cc1C(c1ccccc1F)=NC2, the Papp was 12 ± 2.4 ×10⁻⁶ cm/s (Caco-2 clone P27.7; 3 µM, pH 7.4, together with: cranberry juice 25% apical; apical to basolateral).
O=[N+]([O-])NC1=NCCN1Cc1ccc(Cl)nc1 gave an LC50 of 0.55 mg/kg dry soil (Folsomia candida; survival, OECD 232; LUFA 2.2 soil; 28 days).
Clc1cc(Cl)c(-c2cc(Cl)c(Cl)cc2Cl)cc1Cl gave a fold induction of 3 ± 0.2 fold (PXR (polar bear); reporter gene, agonist, luciferase; COS-7; 24 h; reference: DMSO).
For C/C(=N\C#N)N(C)Cc1ccc(Cl)nc1, the EC20 was 0.06 mg/kg dry soil (Folsomia candida; reproduction, OECD 232; LUFA 2.2 soil; 28 days).
Clc1ccc(Cl)c(-c2c(Cl)c(Cl)cc(Cl)c2Cl)c1 gave a fold induction of 1.5 ± 0.2 fold (PXR (polar bear); reporter gene, agonist, luciferase; COS-7; 24 h; reference: DMSO).
With CN[C@@](C)(C[18F])C(=O)O the tracer uptake was 2.8 %ID/g (SK-OV-3 tumour model; host not given, bone; 30 min, tumour-bearing).
CC[C@@]1(O)C(=O)OCc2c1cc1n(c2=O)Cc2cc3c(CN(C)C)c(O)ccc3nc2-1 gave an efflux ratio of 3.6 (Broad substrate specificity ATP-binding cassette transporter ABCG2 (ABCG2, Homo sapiens, UniProt Q9UNQ0); 3D human intestinal tissue; 120 (unit not given), B-to-A over A-to-B, together with: Ko143).
With Clc1ccc(-c2ccc(Cl)cc2Cl)c(Cl)c1 the fold induction was 1.4 ± 0.4 fold (PXR (polar bear); reporter gene, agonist, luciferase; COS-7; 24 h; reference: DMSO).
For N[C@]1(c2ccccc2Cl)CCC[C@@H](O)C1=O, the dose-normalized Cmax was 104 ± 23.9 ng/mL per mg/kg (male CD-1 mice, plasma; intraperitoneal, 5 mg/kg).
The fold induction of Clc1cc(Cl)c(-c2cccc(Cl)c2Cl)cc1Cl is reported as 2.7 ± 0.6 fold (PXR (polar bear); reporter gene, agonist, luciferase; COS-7; 24 h; reference: DMSO).
For CC[C@H]1CN2CCc3c([nH]c4cccc(OC)c34)[C@@H]2C[C@@H]1/C(=C\OC)C(=O)OC, the IC50 was greater than 45 µM (Cytochrome P450 2C9 (CYP2C9, Homo sapiens, UniProt P11712); enzyme activity, inhibitor; human liver microsomes; together with: diclofenac 4'-hydroxylation).
With Brc1c(Br)c(Br)c(Oc2c(Br)c(Br)c(Br)c(Br)c2Br)c(Br)c1Br the fold induction was 2.5 ± 0.2 fold (NR1I2; reporter gene, agonist, luciferase; COS-7; 24 h; reference: DMSO).
With COc1ccc2c(c1)[C@]13CCCC[C@@H]1[C@H](C2)N(C)CC3 the AUC(0-inf) was 128 ± 12.2 ng·h/mL (Wistar rat, both sexes, plasma; oral, 5 mg/kg, 2 h after pretreatment, together with: single quinidine 2.5 mg/kg).
With C[C@H]1CNCCc2ccc(Cl)cc21 the CL/F was 319 ± 16.5 mL/min/kg (male Sprague-Dawley rat, plasma; subcutaneous, pimavanserin 1 + lorcaserin 1 mg/kg, pimavanserin 15 min earlier).
With CN1CC[C@@]23CCCC[C@@H]2[C@@H]1Cc1ccc(O)cc13 the AUC(0-inf) was 56.9 ± 11.8 ng·h/mL (Wistar rat, both sexes, plasma; oral, 5 mg/kg DEM, DEM 2 h after pretreatment, together with: QN 2.5 mg/kg single pretreatment).
OCc1ncc2n1-c1ccc(Cl)cc1C(c1ccccc1F)=NC2: “metabolic AUC ratio” 0.33 (Cytochrome P450 3A4 (CYP3A4, Homo sapiens, UniProt P08684); human; oral, 25 mg once daily, day -1, molecular-weight corrected, geometric mean, together with: midazolam 7.5 mg; reference: compound AUC over midazolam AUC).

Repeated from above:
With N[C@@]1(c2ccccc2Cl)C[C@H](O)CCC1=O the dose-normalized Cmax was 367 ± 92.1 ng/mL per mg/kg (male CD-1 mice, plasma; intraperitoneal, 5 mg/kg).
CCCC(CCC)C(=O)O: “lowest effective concentration” 9.6 mM (Artemia franciscana; body length; larvae; 24 and 48 h, 0.17% DMSO).
